Measured values pooled from the literature.
Compare with care: the assays were run in different laboratories.
PRKCH: Protein kinase C eta type (PRKCH, Homo sapiens, UniProt P24723)
Chain of UniProt P24723 (whole entry, looked up): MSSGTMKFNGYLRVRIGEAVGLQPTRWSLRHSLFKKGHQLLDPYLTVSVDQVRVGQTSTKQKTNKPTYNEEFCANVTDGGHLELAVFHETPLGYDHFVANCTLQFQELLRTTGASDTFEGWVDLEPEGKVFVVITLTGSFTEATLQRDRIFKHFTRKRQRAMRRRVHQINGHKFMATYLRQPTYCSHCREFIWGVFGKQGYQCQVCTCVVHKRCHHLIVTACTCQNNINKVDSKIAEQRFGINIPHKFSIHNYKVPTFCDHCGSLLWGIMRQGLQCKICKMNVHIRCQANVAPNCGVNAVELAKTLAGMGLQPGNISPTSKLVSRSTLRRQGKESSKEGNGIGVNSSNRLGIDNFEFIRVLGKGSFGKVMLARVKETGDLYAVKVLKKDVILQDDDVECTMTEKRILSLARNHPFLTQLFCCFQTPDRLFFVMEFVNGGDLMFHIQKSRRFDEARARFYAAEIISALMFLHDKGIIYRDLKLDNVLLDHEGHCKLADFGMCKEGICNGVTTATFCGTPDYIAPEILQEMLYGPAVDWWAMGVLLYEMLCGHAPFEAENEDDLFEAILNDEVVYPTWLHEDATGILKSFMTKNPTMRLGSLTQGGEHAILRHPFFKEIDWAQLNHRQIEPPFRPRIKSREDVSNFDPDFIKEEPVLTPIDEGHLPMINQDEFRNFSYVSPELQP
Chain of UniProt Q8TDC3 (whole entry, looked up): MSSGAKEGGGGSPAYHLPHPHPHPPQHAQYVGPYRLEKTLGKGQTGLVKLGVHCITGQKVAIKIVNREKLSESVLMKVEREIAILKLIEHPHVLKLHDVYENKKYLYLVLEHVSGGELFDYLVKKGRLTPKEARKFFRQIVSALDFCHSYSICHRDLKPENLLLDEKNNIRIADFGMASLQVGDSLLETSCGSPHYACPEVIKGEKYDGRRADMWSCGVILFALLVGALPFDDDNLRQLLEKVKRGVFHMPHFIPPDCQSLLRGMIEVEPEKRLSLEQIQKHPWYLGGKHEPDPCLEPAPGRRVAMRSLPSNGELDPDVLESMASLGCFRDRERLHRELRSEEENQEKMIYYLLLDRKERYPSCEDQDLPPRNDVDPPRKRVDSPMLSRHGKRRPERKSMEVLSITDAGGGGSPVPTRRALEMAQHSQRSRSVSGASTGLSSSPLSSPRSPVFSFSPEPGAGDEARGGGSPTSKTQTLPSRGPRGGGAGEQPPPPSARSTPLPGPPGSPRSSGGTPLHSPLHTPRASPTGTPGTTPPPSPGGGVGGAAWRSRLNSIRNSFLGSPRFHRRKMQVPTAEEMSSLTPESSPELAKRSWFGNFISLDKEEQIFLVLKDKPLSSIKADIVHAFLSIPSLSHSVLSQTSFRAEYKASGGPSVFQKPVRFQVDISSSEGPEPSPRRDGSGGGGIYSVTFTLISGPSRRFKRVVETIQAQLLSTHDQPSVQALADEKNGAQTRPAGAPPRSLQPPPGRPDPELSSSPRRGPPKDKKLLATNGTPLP
Chain of UniProt Q02779 (whole entry, looked up): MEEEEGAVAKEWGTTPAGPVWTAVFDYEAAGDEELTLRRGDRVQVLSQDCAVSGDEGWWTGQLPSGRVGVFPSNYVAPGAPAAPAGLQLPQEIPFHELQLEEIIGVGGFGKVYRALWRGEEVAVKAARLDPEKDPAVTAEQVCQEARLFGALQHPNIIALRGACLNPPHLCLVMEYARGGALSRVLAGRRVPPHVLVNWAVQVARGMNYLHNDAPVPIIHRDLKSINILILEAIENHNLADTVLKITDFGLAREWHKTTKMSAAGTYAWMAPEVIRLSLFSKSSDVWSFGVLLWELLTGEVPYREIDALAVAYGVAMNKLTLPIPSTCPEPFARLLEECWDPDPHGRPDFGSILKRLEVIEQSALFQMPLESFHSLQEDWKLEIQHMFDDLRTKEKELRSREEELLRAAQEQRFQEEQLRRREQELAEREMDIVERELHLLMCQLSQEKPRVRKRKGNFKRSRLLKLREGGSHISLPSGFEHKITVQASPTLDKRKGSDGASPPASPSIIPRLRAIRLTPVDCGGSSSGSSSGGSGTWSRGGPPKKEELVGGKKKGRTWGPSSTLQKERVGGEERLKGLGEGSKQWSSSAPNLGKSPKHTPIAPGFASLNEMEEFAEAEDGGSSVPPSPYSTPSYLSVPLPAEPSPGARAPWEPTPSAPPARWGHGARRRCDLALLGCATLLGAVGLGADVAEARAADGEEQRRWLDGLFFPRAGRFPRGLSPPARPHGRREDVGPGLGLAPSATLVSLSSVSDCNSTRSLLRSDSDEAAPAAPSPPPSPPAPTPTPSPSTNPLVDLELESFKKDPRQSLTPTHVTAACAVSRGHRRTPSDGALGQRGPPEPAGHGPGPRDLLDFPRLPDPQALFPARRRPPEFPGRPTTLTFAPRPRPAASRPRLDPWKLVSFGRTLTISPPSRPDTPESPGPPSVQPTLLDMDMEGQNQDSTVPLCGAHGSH
Chain of UniProt Q6P3R8 (whole entry, looked up): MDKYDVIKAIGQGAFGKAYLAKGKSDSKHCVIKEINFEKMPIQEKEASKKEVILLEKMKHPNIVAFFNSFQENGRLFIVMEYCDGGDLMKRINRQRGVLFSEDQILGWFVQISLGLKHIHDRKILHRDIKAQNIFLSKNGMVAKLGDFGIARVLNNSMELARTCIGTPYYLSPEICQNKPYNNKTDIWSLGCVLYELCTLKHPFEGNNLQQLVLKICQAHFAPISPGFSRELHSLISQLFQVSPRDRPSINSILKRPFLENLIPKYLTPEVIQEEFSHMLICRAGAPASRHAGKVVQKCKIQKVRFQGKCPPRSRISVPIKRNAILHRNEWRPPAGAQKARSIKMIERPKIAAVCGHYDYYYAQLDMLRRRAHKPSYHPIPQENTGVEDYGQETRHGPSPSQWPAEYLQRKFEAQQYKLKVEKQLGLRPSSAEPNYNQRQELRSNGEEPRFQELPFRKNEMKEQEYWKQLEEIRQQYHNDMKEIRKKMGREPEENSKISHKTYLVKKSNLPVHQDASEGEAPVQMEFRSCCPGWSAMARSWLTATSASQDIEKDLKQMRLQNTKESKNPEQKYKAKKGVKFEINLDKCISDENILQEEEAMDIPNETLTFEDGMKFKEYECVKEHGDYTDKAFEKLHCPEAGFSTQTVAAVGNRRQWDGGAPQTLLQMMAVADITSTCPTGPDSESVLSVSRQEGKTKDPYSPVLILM
Chain of UniProt Q01959 (whole entry, looked up): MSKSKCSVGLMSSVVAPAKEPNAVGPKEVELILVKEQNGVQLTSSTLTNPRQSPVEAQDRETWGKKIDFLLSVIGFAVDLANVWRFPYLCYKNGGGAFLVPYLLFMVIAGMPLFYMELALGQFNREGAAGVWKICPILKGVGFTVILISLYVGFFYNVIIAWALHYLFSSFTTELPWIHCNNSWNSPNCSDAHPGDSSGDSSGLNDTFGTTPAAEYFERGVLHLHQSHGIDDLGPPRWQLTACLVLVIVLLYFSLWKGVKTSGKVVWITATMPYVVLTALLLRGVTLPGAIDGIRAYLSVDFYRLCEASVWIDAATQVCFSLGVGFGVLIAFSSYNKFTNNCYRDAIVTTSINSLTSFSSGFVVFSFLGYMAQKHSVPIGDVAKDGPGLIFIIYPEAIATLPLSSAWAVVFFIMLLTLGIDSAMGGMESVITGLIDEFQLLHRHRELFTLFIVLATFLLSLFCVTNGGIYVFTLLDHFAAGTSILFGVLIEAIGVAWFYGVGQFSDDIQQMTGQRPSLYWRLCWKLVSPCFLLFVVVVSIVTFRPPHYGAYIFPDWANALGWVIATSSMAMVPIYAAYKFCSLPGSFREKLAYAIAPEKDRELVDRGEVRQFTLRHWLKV
Chain of UniProt P54760 (whole entry, looked up): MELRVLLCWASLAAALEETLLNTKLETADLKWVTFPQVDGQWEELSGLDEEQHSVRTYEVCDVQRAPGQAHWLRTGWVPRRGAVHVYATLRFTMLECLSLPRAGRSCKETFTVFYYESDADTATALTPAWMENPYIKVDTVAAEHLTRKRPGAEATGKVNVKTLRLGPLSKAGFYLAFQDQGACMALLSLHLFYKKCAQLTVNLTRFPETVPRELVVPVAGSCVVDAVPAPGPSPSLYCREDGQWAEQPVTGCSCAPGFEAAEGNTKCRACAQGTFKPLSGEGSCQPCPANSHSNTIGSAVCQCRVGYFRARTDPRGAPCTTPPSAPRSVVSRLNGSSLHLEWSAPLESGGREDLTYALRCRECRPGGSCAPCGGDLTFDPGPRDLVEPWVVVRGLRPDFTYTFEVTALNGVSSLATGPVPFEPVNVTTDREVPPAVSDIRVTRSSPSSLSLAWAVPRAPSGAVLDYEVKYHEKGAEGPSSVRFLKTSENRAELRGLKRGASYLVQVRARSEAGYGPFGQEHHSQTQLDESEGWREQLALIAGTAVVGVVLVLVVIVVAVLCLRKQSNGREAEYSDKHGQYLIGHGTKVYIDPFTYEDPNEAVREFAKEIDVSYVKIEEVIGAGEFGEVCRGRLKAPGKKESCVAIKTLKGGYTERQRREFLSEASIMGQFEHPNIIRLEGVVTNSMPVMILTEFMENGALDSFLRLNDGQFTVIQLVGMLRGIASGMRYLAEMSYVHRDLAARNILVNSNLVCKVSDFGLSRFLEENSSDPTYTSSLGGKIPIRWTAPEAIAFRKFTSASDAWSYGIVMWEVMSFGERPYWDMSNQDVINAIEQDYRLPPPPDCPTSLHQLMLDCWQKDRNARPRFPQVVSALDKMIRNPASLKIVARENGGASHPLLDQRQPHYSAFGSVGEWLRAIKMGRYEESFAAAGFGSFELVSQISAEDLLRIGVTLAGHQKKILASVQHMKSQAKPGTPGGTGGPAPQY

Cc1cc(Nc2cc(N3CCN(C)CC3)nc(Sc3ccc(NC(=O)C4CC4)cc3)n2)[nH]n1 — remaining activity (Ephrin type-A receptor 8 (EPHA8, Homo sapiens, UniProt P29322); kinase activity, KinaseProfiler; 0.03 µM, species human; reference: control): 89%
Cc1cn([C@@H]2O[C@H](CO)[C@@H](O)[C@H]2O)c(=O)[nH]c1=O — log2 fold change (binding, MIDAS equilibrium dialysis LC-MS; A2AR-BRIL thermostabilized; concentration not given; reference: no-protein control): -0.0532
CNc1ncc2c(/C=C/C(=O)N3CCC(OC)CC3)nn(Cc3cccc(C(F)(F)F)c3)c2n1 — remaining activity (PRKCH; kinase activity, inhibitor; 1 µM; reference: untreated control): 109%
O=C1NC(=O)/C(=C/c2ccc(-c3ccc(F)cc3O)o2)S1 — remaining activity (Serine/threonine-protein kinase BRSK1 (BRSK1, Homo sapiens, UniProt Q8TDC3); enzyme activity; 10 µM): 56%
O=c1[nH]c(=O)c2[nH]c(=O)[nH]c2[nH]1 — log2 fold change (binding, MIDAS equilibrium dialysis LC-MS; A2AR-BRIL thermostabilized; concentration not given; reference: no-protein control): -0.0543
COc1cc(N2CCN(C)CC2)ccc1Nc1nc(N)n(C(=S)NCc2c(Cl)cccc2Cl)n1 — remaining activity (Insulin receptor (INSR, Homo sapiens, UniProt P06213); enzyme activity; 10 µM; reference: control): 0%
COc1cc(F)ccc1-c1ncnc(Nc2cccc(C[S@](C)(=N)=O)c2)n1 — remaining activity (PRKCH; kinase activity; 10 µM, added: 10 µM ATP): 110%
N[C@@H]1CC[C@@H](c2ccc(Cl)c(Cl)c2)c2ccccc21 — remaining activity (Sodium-dependent dopamine transporter (SLC6A3, Homo sapiens, UniProt Q01959); dopamine uptake; 0.002 µM, 0.03333 h, added: [3H]dopamine; reference: no inhibitor): 11.2%
C=CC(=O)N1CCC[C@@H](n2nc(-c3ccc(Oc4ccccc4)cc3)c3c(N)ncnc32)C1 — remaining activity (Ephrin type-B receptor 4 (EPHB4, Homo sapiens, UniProt P54760); 10 µM): 98.7%
COc1cc(Nc2ncc3c(n2)-c2ccc(Cl)cc2C(c2c(F)cccc2OC)=NC3)ccc1C(=O)O — remaining activity (Aurora A; inhibitor, biochemical kinase; 1 µM): 0%
O=C(NC1CCC1)c1ccc2nc(-c3cccc(NS(=O)(=O)NCCN4CCCCC4)c3)cn2c1 — remaining activity (Serine/threonine-protein kinase Nek5 (NEK5, Homo sapiens, UniProt Q6P3R8); enzyme activity; 10 µM): 100%
O=C(O)c1ccc(Nc2ncc3c(n2)-c2ccc(Cl)cc2C(c2c(F)cccc2F)=NC3)cc1 — remaining activity (CaMKIIγ(h); kinase activity; 1 µM): 112%
COc1cc(-c2cncc3c2CN(C)Cc2cc(N4CCNCC4)ccc2-3)cc(OC)c1OC — remaining activity (Mitogen-activated protein kinase kinase kinase 10 (MAP3K10, Homo sapiens, UniProt Q02779); kinase activity; 1 µM, human enzyme, added: ATP 10 µM; reference: DMSO control): 117%

Excerpt of the above:
N[C@@H]1CC[C@@H](c2ccc(Cl)c(Cl)c2)c2ccccc21 — remaining activity (Sodium-dependent dopamine transporter (SLC6A3, Homo sapiens, UniProt Q01959); dopamine uptake; 0.002 µM, 0.03333 h, added: [3H]dopamine; reference: no inhibitor): 11.2%
